# Assay results collected from several papers.
# Every numbered part comes from another study and shows a few of its results, in no order. Changes are numbered by the printed parent chain.

# Block 1 — technique: protein binding microarray; form: double-stranded DNA, one strand shown; matrix: in vitro; tested at: not given; baseline: not given; reading: higher = stronger binding
# Target: Histone acetyltransferase KAT6A, winged helix 1, GST fusion (KAT6A, Homo sapiens, UniProt Q92794, residues 1-85)
# Notes: 8-mer, flanks averaged, mean of 2 arrays, mostly near background
# Residues (chain): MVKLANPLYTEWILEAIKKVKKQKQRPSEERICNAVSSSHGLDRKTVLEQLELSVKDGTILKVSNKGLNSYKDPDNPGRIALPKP
Sequence,E-score
ACCGCGGG,0.443
GTCGTGCA,-0.19
AATTCCTG,-0.0825
GTAAAGCA,-0.0394
AAACCCGT,0.31
AAGTTAGT,-0.00383
CGCCAGCG,0.333
ATCCTCGA,-0.203
CGTAAGAG,0.062
GGTAGCAC,0.0305
CCCTCCAC,-0.157
AGGCGGTC,0.166
CTCTTCCA,-0.195
CGATCAAG,-0.00932
GGGCGAAC,0.0409
CACACACC,-0.137
GGGGCTCA,0.0281
AAGAGTGC,0.00587
AATGCCTG,-0.269
GAAATAAA,-0.0954
ACCAGGAT,-0.117
ATTTTCGA,-0.147

# Block 2 — technique: DHFR PCA, deep sequencing; matrix: yeast; with: (+)-ABA 710 µM; baseline: wild-type fitted maximum; reading: higher = stronger binding
# Target: ABI1, truncated, D143A, DHFR fusion (Arabidopsis thaliana)
# Notes: methotrexate growth selection, single substitutions
# Starting sequence: PYL1, truncated, DHFR fusion (Arabidopsis thaliana); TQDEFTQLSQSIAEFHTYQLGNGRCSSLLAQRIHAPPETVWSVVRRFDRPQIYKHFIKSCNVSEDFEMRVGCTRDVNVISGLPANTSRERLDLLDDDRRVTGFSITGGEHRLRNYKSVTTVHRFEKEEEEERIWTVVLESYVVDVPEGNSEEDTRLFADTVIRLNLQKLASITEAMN; partner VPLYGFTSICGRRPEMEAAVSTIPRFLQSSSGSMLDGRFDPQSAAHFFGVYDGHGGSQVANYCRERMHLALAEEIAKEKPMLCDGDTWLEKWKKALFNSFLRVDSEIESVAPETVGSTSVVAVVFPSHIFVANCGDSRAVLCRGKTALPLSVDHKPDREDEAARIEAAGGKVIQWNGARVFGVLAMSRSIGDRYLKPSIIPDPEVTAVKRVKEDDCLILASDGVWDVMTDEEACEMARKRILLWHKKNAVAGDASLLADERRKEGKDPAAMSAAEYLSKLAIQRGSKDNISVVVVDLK
Substitution,relative binding score [%]
A13Y,95.2
N77K,104
L82K,-29.4
F124I,107
F56W,97.6
N114L,37.9
K58I,80.8
E127H,104
D92L,80.2
L20H,111
D65H,97.5
P50Q,24.5

# Block 3 — technique: competition protein-binding microarray; form: double-stranded DNA, one strand shown; matrix: in vitro; tested at: 2 µM; with: Cbf1 competitor, 0.05 µM; reading: higher = stronger binding
# Target: Phosphate system positive regulatory protein PHO4, full length, GST-tagged (PHO4, Saccharomyces cerevisiae, UniProt P07270, residues 1-312)
# Notes: whole 60-bp probe, lowest competitor level
# Construct (chain): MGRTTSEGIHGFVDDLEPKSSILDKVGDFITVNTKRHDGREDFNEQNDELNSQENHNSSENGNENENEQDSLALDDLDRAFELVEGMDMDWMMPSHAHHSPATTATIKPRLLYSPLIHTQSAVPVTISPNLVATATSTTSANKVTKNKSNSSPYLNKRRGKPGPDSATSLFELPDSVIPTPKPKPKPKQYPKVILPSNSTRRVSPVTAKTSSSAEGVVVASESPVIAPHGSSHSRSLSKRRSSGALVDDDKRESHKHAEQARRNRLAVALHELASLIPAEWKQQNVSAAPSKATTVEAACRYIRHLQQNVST
Sequence,fluorescence intensity
TCTACTGAAATATCGCACGTCACCGGTACCAACGGCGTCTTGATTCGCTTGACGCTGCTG,5440 a.u.
AAAGCTGCGGTAAGGCAGGTGATGCTGATTATTAGCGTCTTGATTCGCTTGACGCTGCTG,5080 a.u.
CTTCTGTAAATTTTTCACGTGGCCTGACGCGCCCCGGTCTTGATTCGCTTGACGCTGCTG,12100 a.u.
CTTCTGTAAATTTGTCTCGTGGGTGGACGCGCCCCGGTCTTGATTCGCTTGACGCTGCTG,9740 a.u.
GCATCAGATTCTTGTCATGCTTGTTCAATATACATCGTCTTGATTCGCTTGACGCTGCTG,4480 a.u.
GGGCTTCGGAGTTAGCACGTTGAAAGGCATCTGCCAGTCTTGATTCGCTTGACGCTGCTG,9050 a.u.
GTCTTGTCTCATTGAATAGTGGGTGTCCCCACTTCAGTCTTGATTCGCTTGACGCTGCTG,4140 a.u.
GATGCGTTGCATACCCACGTGGAACAAATGGTCAAGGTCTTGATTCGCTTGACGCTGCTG,20600 a.u.
TCCAGAAGAAGAAACGACGTGCCGAGGTCCATTCCAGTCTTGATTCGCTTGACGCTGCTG,5710 a.u.
CTAGAGCCACAAAAGCACGTGCTTTGGGTGCTTTGGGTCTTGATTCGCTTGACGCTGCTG,18100 a.u.
GTCTTGTCTCATTGTGTAGTGGGTGTCCCCACTTCAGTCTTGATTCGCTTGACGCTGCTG,5550 a.u.

# Block 4 — technique: universal PBM; form: double-stranded DNA, one strand shown; matrix: in vitro; tested at: 600 nM; reading: higher = stronger binding
# Target: Sal-like protein 4, full length isoform A (SALL4, Homo sapiens, UniProt Q9UJQ4, residues 1-1053)
# UniProt Q9UJQ4, sequence (whole entry, looked up): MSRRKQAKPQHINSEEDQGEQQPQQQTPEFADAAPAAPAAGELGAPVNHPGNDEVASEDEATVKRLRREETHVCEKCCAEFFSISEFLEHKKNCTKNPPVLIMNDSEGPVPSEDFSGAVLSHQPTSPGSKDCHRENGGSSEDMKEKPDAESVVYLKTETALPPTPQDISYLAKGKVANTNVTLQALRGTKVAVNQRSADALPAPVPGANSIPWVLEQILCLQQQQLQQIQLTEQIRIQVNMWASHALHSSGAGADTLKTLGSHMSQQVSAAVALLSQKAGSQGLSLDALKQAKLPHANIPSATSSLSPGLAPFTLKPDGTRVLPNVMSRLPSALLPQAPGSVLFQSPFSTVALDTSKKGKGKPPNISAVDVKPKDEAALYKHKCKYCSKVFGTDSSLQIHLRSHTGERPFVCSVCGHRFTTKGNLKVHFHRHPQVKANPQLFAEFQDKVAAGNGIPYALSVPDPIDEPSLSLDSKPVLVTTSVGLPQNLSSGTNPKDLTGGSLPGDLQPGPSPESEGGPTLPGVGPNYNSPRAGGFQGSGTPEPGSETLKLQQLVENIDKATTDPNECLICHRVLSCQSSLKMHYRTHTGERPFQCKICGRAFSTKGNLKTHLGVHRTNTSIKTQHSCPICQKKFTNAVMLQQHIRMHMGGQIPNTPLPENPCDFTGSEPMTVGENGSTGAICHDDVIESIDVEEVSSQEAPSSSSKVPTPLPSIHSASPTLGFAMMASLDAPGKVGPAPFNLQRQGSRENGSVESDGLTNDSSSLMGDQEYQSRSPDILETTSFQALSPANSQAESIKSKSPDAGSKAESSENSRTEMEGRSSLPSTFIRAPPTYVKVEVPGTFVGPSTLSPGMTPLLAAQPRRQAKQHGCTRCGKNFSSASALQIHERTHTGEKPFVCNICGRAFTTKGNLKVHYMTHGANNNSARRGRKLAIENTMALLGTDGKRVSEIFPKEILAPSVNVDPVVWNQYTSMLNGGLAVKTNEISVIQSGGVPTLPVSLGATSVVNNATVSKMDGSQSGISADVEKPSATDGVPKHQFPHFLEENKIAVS
# Notes: 8-mer, flanks averaged, mean of replicates
Sequence,E-score
TAGCCACA,0.0121
GCAAGGCA,-0.0658
CAGGTCAA,-0.141
CCGCACTC,-0.245
GCATTCAA,0.146
CTTAGAGA,-0.0151
TTAGATAA,0.235
ATGCCTGC,-0.0904
CGGCACAA,-0.147
GCTAACAA,0.0887
ACTCAGCC,-0.234
ACCGCCCG,-0.31
CAACTGGC,-0.133
ACGCGCTC,-0.25
AAAGGAAG,0.0384
AGTGTAAA,0.232

# Block 5 — technique: RNA Bind-n-Seq; form: RNA; matrix: in vitro; tested at: 365 nM; baseline: no-protein control; reading: higher = stronger binding
# Target: RNA binding protein fox-1 homolog 2, RRM domain, GST-SBP tag (RBFOX2, Homo sapiens, UniProt O43251-10, residues 100-194)
# Notes: natural RNA segment, single round, ends assumed
# Target sequence (chain): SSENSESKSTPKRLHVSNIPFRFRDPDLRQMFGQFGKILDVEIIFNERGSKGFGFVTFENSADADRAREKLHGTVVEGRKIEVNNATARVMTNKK
Sequence,RBNS enrichment (R)
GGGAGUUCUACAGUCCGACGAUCGAAAUUGAAAAUGACCAAAAUCAGGAACCACAGAUUUGUGCCCAUUCCUAAUAUUUUGUUCUGCAAAUUAAUGUAUAAUUUGAGGUGAAAUUCAGUUAUAAAGUCAAGGAUGGAAUUCUCGGGUGCCAA,0.292
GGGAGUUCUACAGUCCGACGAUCAUGCUCCGGUGUGCCAAGCCCCAGCUCCGAUGUCUGCUUUGUGCAAUUUGCCUUUACCUCACCAAAAAUGUCUAGUUUAAUCUUCCUGCCGUGCCCGCUGACUGUCUGGGUGGAAUUCUCGGGUGCCAA,0.832
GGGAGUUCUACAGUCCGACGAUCCCAGCCCCCUAGGAACGUGUUACUAGCUCCUAAUAGCUUGGUUGAAGCUCCUUGGCCUCUGAGGACCCCUAAUAACCCAGAAUCUUGGGGAGCCCUUUCCUUUGAGAAUAUGGAAUUCUCGGGUGCCAA,0.408
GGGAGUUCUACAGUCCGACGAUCUGAAGAGCUGCGCCCUGGUUUCGCCGGACAGAGUUGGUGUUUGGAGCCCGACUGCCCUCGGGCACACGGCCUGCCUGUCGCAUGUUUGUGUCUGCCUCGUUCCCUCCCCUUGGAAUUCUCGGGUGCCAA,10.1
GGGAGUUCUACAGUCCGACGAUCUUGAAUUUUGUUGUCCGGCCCUCAGUGCCCUGCCCUCUCCCUUACCAGGACCACAGCUCUGUUCCUUCGGCCUCUGGUCCUCUCUGGUCCCCUCCUGGGUUUCUUACGUAUGGAAUUCUCGGGUGCCAA,0.315
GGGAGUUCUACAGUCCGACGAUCAUGUUUAAAAAUUGGAAGGAAAUACUACUCAUAUCUUCAUUGUCACUUUGUCUUACCUCAAUUGAGUAACAGAAUAUAGCUCCUGAAGGAAACACUGAUUUGCUUUCUGUUGGAAUUCUCGGGUGCCAA,0.485
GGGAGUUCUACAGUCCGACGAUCUGUUAGUUGACAGUUGUGGGCUCAUGUAGUCUUUUUUGCCAUGAGUAGGAGCCCCUAGUGGGGCUGGUGGACAGCUUUGGAAGAGGUGUCCUGCUGCUGUUACCAGCCAUUGGAAUUCUCGGGUGCCAA,0.518
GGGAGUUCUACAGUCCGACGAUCUGGACCCUGCAGAGUGCUGGGGACGGGGUCACCGGUGUGGACAUGUGCUGGAUGUUGCUCCUUUCCCCGAUUUCAAGUUGAUGUUGACAGAAUUUCAGUAGCUUACAUAAUGGAAUUCUCGGGUGCCAA,1.32
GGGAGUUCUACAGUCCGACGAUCGAUGCUUGUGGCACACAGUUGGGUGAUGUGGGGAAAGGACACCGGGUCAGGAGUUGCAAGUUUAACUCCGUCCUCACUUGUAGCAUUGAAUGCCUCCUGUGCUGUCUAGUUGGAAUUCUCGGGUGCCAA,37.7
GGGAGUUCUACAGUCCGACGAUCUGGGAUGGAGAACCACUCUGUCCAGAUCUGGGGUUGGGUCAUGACACCAGCUACCAAUUUUAGAAUAUUAUUUCUUGGUUUCUUUAUGAAAAAUGGGUGCUAGUGGUAAUUGGAAUUCUCGGGUGCCAA,0.343
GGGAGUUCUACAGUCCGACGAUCACGGGACCUCCACAGUCCAAUGGCAUUGCCUGUGUGUGCUGUCAUGAAGAUACCACGGCUGUUCUGGUCAGCUCCUACCCUUACAUCUCUGUGUGUGUCGUCCCUCAUCCUGGAAUUCUCGGGUGCCAA,0.615

# Mixed results
# Starting sequence: BRCA2 docking peptide (human); CKKRRALDFLSRL
Substitution,target,assay,test system,setting,how to read,quantity,value
CKKRAALDFLSRL [R5A],"CCND2, cyclin fold, Cln2 fusion (human)","yeast growth competition, sequencing",yeast,weak parent motif,"baseline: not given, higher = stronger binding",normalised enrichment score,0.102

# For quick reference, copied from above (block 2):
Substitution,relative binding score [%]
F56W,97.6
N114L,37.9
K58I,80.8
E127H,104
D92L,80.2
L20H,111
